Experimental data pooled from the literature.
Each numbered part is a random draw from the data of one study; scales do not carry over between parts. Several values in a cell are separate wells, animals, samples, runs or records.
Chain of UniProt Q04759 (whole entry, looked up): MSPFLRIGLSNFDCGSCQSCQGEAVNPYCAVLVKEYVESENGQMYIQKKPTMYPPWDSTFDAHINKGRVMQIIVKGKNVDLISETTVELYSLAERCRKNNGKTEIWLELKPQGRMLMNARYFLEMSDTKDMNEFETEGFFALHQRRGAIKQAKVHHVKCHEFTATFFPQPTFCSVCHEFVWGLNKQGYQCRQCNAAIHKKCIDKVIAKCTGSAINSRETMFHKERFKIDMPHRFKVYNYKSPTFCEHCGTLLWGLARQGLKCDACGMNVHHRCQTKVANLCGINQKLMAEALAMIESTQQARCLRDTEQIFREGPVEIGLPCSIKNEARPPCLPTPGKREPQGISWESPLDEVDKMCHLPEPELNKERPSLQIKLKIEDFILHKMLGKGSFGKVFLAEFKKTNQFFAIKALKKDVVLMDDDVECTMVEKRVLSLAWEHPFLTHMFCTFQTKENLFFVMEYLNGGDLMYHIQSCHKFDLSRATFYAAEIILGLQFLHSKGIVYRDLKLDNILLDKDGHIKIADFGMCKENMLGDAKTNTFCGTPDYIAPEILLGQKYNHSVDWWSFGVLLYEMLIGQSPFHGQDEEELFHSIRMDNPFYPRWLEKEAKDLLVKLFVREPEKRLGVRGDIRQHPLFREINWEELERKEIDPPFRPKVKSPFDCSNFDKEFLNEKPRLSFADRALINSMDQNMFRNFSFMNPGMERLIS
Chain of UniProt P49759 (whole entry, looked up): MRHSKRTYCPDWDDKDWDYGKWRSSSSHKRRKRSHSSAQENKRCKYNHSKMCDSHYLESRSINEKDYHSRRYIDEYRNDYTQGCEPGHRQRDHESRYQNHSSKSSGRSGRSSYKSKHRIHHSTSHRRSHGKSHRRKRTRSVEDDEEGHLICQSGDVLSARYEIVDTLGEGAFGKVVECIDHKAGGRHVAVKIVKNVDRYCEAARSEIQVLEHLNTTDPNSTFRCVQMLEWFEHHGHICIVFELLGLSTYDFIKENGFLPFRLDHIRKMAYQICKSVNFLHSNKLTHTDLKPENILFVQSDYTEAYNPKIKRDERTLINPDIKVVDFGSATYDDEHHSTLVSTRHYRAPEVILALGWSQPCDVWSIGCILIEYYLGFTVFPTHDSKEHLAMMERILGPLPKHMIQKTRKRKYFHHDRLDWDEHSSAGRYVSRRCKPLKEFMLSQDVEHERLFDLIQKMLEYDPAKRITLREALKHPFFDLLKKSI
Chain of UniProt P08069 (whole entry, looked up): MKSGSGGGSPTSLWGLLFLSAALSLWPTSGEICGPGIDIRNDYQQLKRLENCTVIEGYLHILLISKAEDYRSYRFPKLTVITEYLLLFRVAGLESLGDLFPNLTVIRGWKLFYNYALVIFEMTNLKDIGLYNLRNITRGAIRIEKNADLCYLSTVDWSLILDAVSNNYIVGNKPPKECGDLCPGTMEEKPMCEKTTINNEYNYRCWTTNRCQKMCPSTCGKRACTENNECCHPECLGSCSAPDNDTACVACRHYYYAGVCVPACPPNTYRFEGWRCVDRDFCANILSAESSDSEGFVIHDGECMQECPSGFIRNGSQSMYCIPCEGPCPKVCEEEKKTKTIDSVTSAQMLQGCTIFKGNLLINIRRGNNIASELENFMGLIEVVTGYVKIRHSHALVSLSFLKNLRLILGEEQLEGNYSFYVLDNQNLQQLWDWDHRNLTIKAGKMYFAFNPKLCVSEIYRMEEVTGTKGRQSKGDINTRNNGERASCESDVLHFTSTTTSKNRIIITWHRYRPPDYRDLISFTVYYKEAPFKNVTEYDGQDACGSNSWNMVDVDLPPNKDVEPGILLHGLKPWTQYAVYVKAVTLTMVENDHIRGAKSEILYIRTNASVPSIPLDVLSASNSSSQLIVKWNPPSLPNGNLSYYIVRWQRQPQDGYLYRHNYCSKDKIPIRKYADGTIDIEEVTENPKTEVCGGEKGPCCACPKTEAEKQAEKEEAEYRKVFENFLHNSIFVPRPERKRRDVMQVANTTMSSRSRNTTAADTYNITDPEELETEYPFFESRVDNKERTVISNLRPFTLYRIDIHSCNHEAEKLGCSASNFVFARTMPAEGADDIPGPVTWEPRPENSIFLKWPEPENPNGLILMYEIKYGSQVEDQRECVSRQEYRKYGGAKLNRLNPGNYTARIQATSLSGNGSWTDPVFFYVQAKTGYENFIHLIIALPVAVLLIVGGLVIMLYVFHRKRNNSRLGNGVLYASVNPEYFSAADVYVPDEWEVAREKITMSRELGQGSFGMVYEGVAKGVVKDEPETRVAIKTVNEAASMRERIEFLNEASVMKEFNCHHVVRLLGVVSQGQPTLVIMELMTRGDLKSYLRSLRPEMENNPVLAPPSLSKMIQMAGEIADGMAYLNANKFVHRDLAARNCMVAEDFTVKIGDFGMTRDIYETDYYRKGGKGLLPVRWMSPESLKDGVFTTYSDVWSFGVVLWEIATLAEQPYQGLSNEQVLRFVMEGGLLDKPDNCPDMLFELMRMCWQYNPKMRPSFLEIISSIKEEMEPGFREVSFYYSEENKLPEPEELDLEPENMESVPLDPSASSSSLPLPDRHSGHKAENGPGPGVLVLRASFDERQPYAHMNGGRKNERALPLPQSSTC
Chain of UniProt Q9UF33 (whole entry, looked up): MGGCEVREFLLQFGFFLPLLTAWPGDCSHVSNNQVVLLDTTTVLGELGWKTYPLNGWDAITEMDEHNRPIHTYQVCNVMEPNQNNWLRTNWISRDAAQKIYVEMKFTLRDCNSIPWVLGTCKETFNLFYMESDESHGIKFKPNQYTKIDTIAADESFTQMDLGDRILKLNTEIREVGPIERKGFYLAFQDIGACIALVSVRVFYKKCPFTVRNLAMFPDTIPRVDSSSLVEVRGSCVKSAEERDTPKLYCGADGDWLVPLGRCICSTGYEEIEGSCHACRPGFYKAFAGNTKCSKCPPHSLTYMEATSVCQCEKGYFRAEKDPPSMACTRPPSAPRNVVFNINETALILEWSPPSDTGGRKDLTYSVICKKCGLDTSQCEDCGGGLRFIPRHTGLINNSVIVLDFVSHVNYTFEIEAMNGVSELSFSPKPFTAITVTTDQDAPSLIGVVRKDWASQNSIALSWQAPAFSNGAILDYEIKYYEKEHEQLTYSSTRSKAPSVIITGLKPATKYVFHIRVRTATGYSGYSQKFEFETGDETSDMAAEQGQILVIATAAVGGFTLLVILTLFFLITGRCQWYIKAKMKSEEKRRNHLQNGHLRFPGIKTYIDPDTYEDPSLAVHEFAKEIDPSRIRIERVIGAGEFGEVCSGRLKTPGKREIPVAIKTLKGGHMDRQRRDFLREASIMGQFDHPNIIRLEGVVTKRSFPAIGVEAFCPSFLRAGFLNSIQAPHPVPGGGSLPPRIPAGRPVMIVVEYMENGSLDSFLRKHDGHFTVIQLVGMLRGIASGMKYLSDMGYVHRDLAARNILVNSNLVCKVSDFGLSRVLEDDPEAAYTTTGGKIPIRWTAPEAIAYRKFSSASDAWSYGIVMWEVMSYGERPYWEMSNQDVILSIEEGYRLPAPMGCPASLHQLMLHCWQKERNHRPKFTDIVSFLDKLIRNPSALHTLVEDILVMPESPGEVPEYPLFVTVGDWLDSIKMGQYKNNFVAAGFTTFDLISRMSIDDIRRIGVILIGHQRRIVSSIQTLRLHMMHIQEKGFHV
Chain of UniProt P29317 (whole entry, looked up): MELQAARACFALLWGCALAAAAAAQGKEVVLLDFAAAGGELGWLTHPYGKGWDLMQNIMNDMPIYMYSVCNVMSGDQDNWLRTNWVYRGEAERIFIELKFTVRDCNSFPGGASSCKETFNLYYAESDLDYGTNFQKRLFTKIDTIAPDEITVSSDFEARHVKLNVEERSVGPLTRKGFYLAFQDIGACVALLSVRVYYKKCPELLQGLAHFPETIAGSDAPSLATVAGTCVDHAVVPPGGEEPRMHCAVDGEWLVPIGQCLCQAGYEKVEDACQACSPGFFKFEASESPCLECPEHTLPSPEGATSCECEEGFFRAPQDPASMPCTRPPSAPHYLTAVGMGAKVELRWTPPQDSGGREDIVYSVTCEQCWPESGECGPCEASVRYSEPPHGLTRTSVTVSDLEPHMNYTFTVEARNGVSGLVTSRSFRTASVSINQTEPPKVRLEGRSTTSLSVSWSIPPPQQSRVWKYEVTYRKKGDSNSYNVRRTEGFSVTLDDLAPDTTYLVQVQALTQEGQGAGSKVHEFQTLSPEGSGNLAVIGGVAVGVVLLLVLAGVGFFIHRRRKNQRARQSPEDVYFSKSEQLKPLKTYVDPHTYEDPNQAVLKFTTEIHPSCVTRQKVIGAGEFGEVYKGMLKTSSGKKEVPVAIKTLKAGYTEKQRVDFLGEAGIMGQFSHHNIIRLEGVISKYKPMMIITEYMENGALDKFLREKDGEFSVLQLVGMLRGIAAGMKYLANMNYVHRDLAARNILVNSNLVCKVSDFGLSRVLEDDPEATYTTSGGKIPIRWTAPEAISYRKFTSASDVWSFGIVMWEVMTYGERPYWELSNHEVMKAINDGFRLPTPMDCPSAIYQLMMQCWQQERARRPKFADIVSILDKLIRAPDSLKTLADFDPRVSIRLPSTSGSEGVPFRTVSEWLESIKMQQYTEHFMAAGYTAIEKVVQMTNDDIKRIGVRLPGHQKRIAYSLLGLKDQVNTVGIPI
Chain of UniProt Q8N5S9 (whole entry, looked up): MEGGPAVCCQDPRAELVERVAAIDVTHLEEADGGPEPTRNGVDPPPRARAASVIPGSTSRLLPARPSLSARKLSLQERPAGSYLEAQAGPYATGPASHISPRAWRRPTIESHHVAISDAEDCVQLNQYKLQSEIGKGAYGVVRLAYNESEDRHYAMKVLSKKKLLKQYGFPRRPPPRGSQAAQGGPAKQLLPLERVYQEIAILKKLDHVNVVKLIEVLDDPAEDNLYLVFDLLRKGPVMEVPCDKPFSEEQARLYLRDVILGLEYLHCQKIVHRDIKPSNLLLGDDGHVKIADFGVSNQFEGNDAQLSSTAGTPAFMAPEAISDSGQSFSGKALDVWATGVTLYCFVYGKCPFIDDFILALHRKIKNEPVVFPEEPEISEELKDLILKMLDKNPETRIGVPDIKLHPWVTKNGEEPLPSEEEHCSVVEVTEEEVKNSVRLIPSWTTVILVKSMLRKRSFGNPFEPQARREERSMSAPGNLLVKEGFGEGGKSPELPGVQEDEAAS

Set 1 — cell line: normal organoid sample H; method: CellTiter-Glo; species: human; medium: normal-adjacent epithelium; tested at: 0.1 µM; relative to: DMSO
| SMILES | viability |
| --- | --- |
| COCCOc1nc(-c2ccc(Cl)nc2)nc2c1CN(C(=O)c1ncn3ccccc13)CC2 | 104% and 171% |
| Cc1c[nH]c2nccc(Oc3c(F)cc(Nc4cc(Cl)nc(N)n4)cc3F)c12 | 108% and 125% |
| C[C@@H]1CN(c2cc(-c3n[nH]c4ccc(OC5(C)CC5)cc34)ncn2)C[C@H](C)O1 | 120% and 95.1% |
| O=C(N[C@H]1CCCCC/C=C\C2C[C@@]2(C(=O)O)NC(=O)[C@@H]2C[C@@H](Oc3ccncc3)CN2C1=O)OC1CCCC1 (stereo partly shown) | 97.1% and 95.1% |
| COc1ccc2cc(OCC3(C(=O)O)CN(C(=O)c4ccc(F)cc4)C3)ccc2c1 | 109% and 117% |
| CNCc1ccccc1-c1csc([C@H](C)Nc2nc(C)nc3cc(OC)c(OC)cc23)c1 | 70.2% and 94.7% |
| CCS(=O)(=O)c1cc2cc(C[C@@](O)(CC(C)(C)c3ccc(F)cc3C(N)=O)C(F)(F)F)[nH]c2cn1 | 119% and 91.2% |
| N#Cc1ccc(Nc2ccc3[nH]c(=O)[nH]c3c2)c(Cl)c1 | 95.9% and 89.5% |
| O=C(Nc1ccc(Oc2ccc(F)cc2)cc1)N1CCc2ncccc2[C@H]1c1ccc(F)cc1 | 102% and 113% |

Set 2 — Structure (SMILES): Fc1ccc(-c2nc3n(c2-c2ccncc2)CCS3)cc1; read-out: enzyme activity; action: inhibitor; tested at: 0.5 µM; relative to: control
| target | remaining activity |
| --- | --- |
| Casein kinase I isoform epsilon (CSNK1E, Homo sapiens, UniProt P49674) | 20% |
| Vascular endothelial growth factor receptor 1 (FLT1, Homo sapiens, UniProt P17948) | 84.1% |
| Serine/threonine-protein kinase SIK2 (SIK2, Homo sapiens, UniProt Q9H0K1) | 108% |
| Calcium/calmodulin-dependent protein kinase type 1 (CAMK1, Homo sapiens, UniProt Q14012) | 107% |
| SRSF protein kinase 1 (SRPK1, Homo sapiens, UniProt Q96SB4) | 100% |
| Tyrosine-protein kinase JAK1 (JAK1, Homo sapiens, UniProt P23458) | 106% |
| Protein kinase C theta type (PRKCQ, Homo sapiens, UniProt Q04759) | 123% |
| Mitogen-activated protein kinase kinase kinase 20 (MAP3K20, Homo sapiens, UniProt Q9NYL2) | 100% |
| Cyclin-dependent kinase 2, with cyclin E (CDK2, Homo sapiens, UniProt P24941) | 87.9% |
| Serine/threonine-protein kinase PAK 1 (PAK1, Homo sapiens, UniProt Q13153) | 96.1% |
| Calcium/calmodulin-dependent protein kinase kinase 1 (CAMKK1, Homo sapiens, UniProt Q8N5S9) | 113% |
| Ribosomal protein S6 kinase alpha-3 (RPS6KA3, Homo sapiens, UniProt P51812) | 107% |
| Dual specificity protein kinase CLK1 (CLK1, Homo sapiens, UniProt P49759) | 103% |
| Dual specificity protein kinase CLK2 (CLK2, Homo sapiens, UniProt P49760) | 105% |
| Casein kinase I isoform delta (CSNK1D, Homo sapiens, UniProt P48730) | 6.99% |
| Ephrin type-A receptor 6 (EPHA6, Homo sapiens, UniProt Q9UF33) | 94.7% |
| Tyrosine-protein kinase Tec (TEC, Homo sapiens, UniProt P42680) | 130% |
| Serine/threonine-protein kinase PAK 6 (PAK6, Homo sapiens, UniProt Q9NQU5) | 106% |
| Ephrin type-A receptor 2 (EPHA2, Homo sapiens, UniProt P29317) | 107% |
| Serine/threonine-protein kinase Sgk2 (SGK2, Homo sapiens, UniProt Q9HBY8) | 105% |
| Protein kinase C zeta type (PRKCZ, Homo sapiens, UniProt Q05513) | 90.6% |
| Muscle, skeletal receptor tyrosine-protein kinase (MUSK, Homo sapiens, UniProt O15146) | 91.1% |
| Tyrosine-protein kinase receptor TYRO3 (TYRO3, Homo sapiens, UniProt Q06418) | 104% |
| Insulin-like growth factor 1 receptor (IGF1R, Homo sapiens, UniProt P08069) | 106% |

Set 3 — cell line: HaCaT; tested at: 100 µM; time: 60 h
| Structure (SMILES) | viability |
| --- | --- |
| CC(=O)OCC(=O)[C@@]12OC3(CCCC3)O[C@@H]1C[C@H]1[C@@H]3CCC4=CC(=O)C=C[C@]4(C)[C@@]3(F)[C@@H](O)C[C@@]12C | 45.2% |
| COc1ccc2[nH]c([S+]([O-])Cc3ncc(C)c(OC)c3C)nc2c1 (stereo not shown) | 122% |
| O=C(COc1ccc(Cl)cc1)N1CCN(Cc2ccc3c(c2)OCO3)CC1 | 79.6% |
| CC(=O)[C@@]1(O)CC[C@H]2[C@@H]3C[C@H](C)C4=CC(=O)C=C[C@]4(C)[C@@]3(F)[C@@H](O)C[C@@]21C | 137% |
| C[N+]1(C)[C@@H]2C[C@@H](OC(=O)C(O)(c3cccs3)c3cccs3)C[C@H]1[C@@H]1O[C@@H]12 | 144% |
| CC1(C)C(C=C(Cl)Cl)C1C(=O)OCc1cccc(Oc2ccccc2)c1 (stereo not shown) | 66.5% |
| c1ccc2c(CC3=NCCN3)cccc2c1 | 111% |

Set 4 — action: inhibitor
Structure (SMILES): Cc1nc(Nc2ncc(C(=O)Nc3c(C)cccc3Cl)s2)cc(N2CCN(CCO)CC2)n1
| target | conditions | inhibition |
| --- | --- | --- |
| RAF proto-oncogene serine/threonine-protein kinase (RAF1, Homo sapiens, UniProt P04049) | 1 µM | < 50% |
| Proto-oncogene tyrosine-protein kinase receptor Ret (RET, Homo sapiens, UniProt P07949, V804M) | 10 µM | < 50% |
| Calcium/calmodulin-dependent protein kinase kinase 2 (CAMKK2, Homo sapiens, UniProt Q96RR4) | 10 µM | < 50% |
| Dual specificity testis-specific protein kinase 1 (TESK1, Homo sapiens, UniProt Q15569) | 10 µM | 100% |
| Serine/threonine-protein kinase Nek6 (NEK6, Homo sapiens, UniProt Q9HC98) | 10 µM | < 50% |
| Myotonin-protein kinase (DMPK, Homo sapiens, UniProt Q09013) | 10 µM | 94% |
| NUAK family SNF1-like kinase 2 (NUAK2, Homo sapiens, UniProt Q9H093) | 10 µM | < 50% |
| Serine/threonine-protein kinase DCLK3 (DCLK3, Homo sapiens, UniProt Q9C098) | 10 µM | < 50% |
| Activated CDC42 kinase 1 (TNK2, Homo sapiens, UniProt Q07912) | 10 µM | 100% |

Excerpt of the above (set 2):
| target | remaining activity |
| --- | --- |
| Calcium/calmodulin-dependent protein kinase type 1 (CAMK1, Homo sapiens, UniProt Q14012) | 107% |
| Calcium/calmodulin-dependent protein kinase kinase 1 (CAMKK1, Homo sapiens, UniProt Q8N5S9) | 113% |
| Casein kinase I isoform delta (CSNK1D, Homo sapiens, UniProt P48730) | 6.99% |
| Tyrosine-protein kinase receptor TYRO3 (TYRO3, Homo sapiens, UniProt Q06418) | 104% |
| Protein kinase C zeta type (PRKCZ, Homo sapiens, UniProt Q05513) | 90.6% |
| Mitogen-activated protein kinase kinase kinase 20 (MAP3K20, Homo sapiens, UniProt Q9NYL2) | 100% |
| Vascular endothelial growth factor receptor 1 (FLT1, Homo sapiens, UniProt P17948) | 84.1% |
| Casein kinase I isoform epsilon (CSNK1E, Homo sapiens, UniProt P49674) | 20% |
